Results of several laboratories.
A part holds a random share of what one study measured.

Series 1 — technique: RNA Bind-n-Seq; form: RNA; sample: in vitro; tested at: 200 nM; notes: whole 134-nt RNA, ends assumed; together with: 150 mM LiCl; relative to: input library; reading: higher = stronger binding; all molecules: 7-deaza-guanosine replaces G
Target: Ras GTPase-activating protein-binding protein 1, full length (G3BP1, Homo sapiens, UniProt Q13283)
Sequence of UniProt Q13283 (whole entry, looked up): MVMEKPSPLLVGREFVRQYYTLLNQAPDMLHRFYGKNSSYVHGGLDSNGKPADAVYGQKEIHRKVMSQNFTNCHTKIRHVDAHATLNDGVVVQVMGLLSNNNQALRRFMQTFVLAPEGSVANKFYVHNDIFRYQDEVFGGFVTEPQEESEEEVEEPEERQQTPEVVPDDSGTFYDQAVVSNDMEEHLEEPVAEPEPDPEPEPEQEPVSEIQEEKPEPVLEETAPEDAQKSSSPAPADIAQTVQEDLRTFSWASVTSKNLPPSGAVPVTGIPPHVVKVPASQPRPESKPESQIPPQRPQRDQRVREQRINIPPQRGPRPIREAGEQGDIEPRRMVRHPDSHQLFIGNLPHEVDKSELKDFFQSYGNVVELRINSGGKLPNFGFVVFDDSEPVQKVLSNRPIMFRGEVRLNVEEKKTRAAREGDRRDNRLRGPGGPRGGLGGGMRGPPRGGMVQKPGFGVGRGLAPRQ
Strand	log2 enrichment
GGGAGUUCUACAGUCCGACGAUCCUGUGCUACACAUCGUAUGUACCGAAUCGGGGUUUUUUUGGGGUUUUUUUGGUUUUUUUGGGAAAGUAUUAUGUUACGCCGUUCGGAUCUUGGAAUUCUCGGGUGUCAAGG	1.5
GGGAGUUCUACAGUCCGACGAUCUCCUCAAGUCCUGUGCUACACAUCGUAUGUACCGAAUCGGAGGUUUGGUGGAAAGUAUUAUGUUACGCCGUUCGGAUCUGCACUUCCAGCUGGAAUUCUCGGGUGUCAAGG	-1.06
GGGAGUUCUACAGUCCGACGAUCUCCUCAAGUCCUGUGCUACACAUCGUAUGUACCGAAUCGGUGGGUGGUGGGAAAGUAUUAUGUUACGCCGUUCGGAUCUGCACUUCCAGCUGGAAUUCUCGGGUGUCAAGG	0.485
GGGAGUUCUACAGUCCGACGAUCUCCUCAAGUCCUGUGCUACACAUCGUAUGUACCGAAUCGGUGGGGUGGUGGAAAGUAUUAUGUUACGCCGUUCGGAUCUGCACUUCCAGCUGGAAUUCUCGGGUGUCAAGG	-0.253
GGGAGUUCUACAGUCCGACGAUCUUGCUGUCACCCGCUGCCUGUCUGCAGGAUCCCGGAUUCCGUAUCAGGGGACCGAAAUUAGUCGGAAAAUAGGAAGCAGGUGCUCGCUUGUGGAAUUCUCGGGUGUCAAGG	-1.12
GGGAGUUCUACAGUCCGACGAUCACCAUGCAGGUGGGCAUCUUUGGGAAGUGGGGCAAGGGGGGGAUAGGGAGGGGGGUAACACUUUGGGAACAGGUGGUCCCAGGUCUUUUCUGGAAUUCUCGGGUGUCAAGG	0.412
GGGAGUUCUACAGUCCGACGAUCUGUGCUACACAUCGUAUGUACCGAAUCGGGAAAAAAAGGGGAAAAAAAGGGGAAAAAAAGGGAAAGUAUUAUGUUACGCCGUUCGGAUCUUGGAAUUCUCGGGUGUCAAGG	0.339
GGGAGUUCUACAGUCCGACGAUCGUGCUACACAUCGUAUGUACCGAAUCGGGGAAAAAAAGGGGAAAAAAAGGGGAAAAAAAGGGGAAAGUAUUAUGUUACGCCGUUCGGAUCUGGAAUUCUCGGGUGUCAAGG	0.427

Series 2 — organism: Saccharomyces cerevisiae; effect on: binding; technique: yeast competitive growth sequencing; form: peptide; notes: cyclin B2-Cln2 chimera; reading: direction not given
Sequence	enrichment score
PFSENVSAVQKLDFSD	1.21
TSSAQRRLEIPSGGAD	-0.28
SFLIEYEFLIPPSLKP	0.243
ISRLFPPRTPGWHQLQ	-1.01
RDLFDCDFGDLTPLDF	1
KPITLDTTDFQESFVT	1.72
PLRKAKRARLCSSSSS	2.16
KRRLDLETDHQY	0.17
TRRRLFVENDSP	-0.542
AGSAKRRLFGEDPPKE	0.254
ESSTVSEEDYFSSHRD	1.38
SPREGHMMDALYAQVK	0.592
TSPGPVLLHPSPSTTQ	0.387

Series 3 — technique: RNA Bind-n-Seq; form: RNA; sample: in vitro; tested at: 365 nM; relative to: no-protein control; reading: higher = stronger binding
Target: RNA binding protein fox-1 homolog 2, RRM domain, GST-SBP tag (RBFOX2, Homo sapiens, UniProt O43251-10, residues 100-194)
Notes: natural RNA segment, single round, ends assumed
Target sequence (chain): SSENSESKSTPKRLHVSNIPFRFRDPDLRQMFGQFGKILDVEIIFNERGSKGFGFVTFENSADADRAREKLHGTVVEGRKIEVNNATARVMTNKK
Strand	RBNS enrichment (R)
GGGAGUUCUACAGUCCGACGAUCCACUGCUUUCUCAAGUAGUUUUGAGUGCUGGGUCCUUAAAACCCAACUAUGCAUUUUUGUCUGAAAGUAGGCACUGAAGCAUUGAAGUAAGGUAAGGAGACAUCCUCUUCUGGAAUUCUCGGGUGCCAA	0.231
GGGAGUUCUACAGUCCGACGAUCUUGUUGACUGUGAUUAGAUCACACCUUAAUUCAUUUCUAGACUCAAAACCUGGAGACGCAGCUACUGGAAUGGUGUUUUGUGAGACUUCCAAGGCUGGAAAGACACAGUCUGGAAUUCUCGGGUGCCAA	0.423
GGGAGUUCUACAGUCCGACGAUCCCCUCUGAUCCUGGACUCCCCAUGUCUAGUUCAGACCUAUUUCCUGUUCCCUUGAUAGCUUCGGGUCAUUGGUGGCAGCUCAUGUCCUCGGCGCUCCUUGUGUGGAGGCCUGGAAUUCUCGGGUGCCAA	0.776
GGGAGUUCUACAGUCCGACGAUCCUCUGAUGAAUAAAGACCAUGAGUGGAGUUCCUUAACUCAGGCUUUUGUGAGUAGUUUACUAAGGAACUGAAAAUGGUCCCCUUUGUCCAAGCUGAGCUGCUAGGGAAUCUGGAAUUCUCGGGUGCCAA	0.507
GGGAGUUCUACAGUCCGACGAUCCAGGAGGCCUCCUGACACCAGCCAAAAUCCUGACAGCAGGGUCUGCCCUCUUGAGUGUGGGGAGCCCCUAGUCCUUUAAGGUUGGCUGCUAAGGCCUGUGCUCCAAAGCAUGGAAUUCUCGGGUGCCAA	1.07
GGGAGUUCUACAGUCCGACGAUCUACCUUGGCACUCAGGUGCUGGUAUGUGCAUUCUUGCUUCCAAAGGAUUGACAGUAACAAAUUCUCAAAGCUUGACUGGAGCUGGCUGCAGCUCAAAACAGUGCCUCCUGUGGAAUUCUCGGGUGCCAA	0.503
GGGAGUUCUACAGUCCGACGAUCGAUUAUGUGCUUGACCACUGCCUUUUAAAACUUUAAAUUAAAUAAAACAUUGGGGAUGAUUCAAUUUAGCCAUCUGUGUGUGUGUUUCUUUAUGGAUACGUGGUCUAAGGUGGAAUUCUCGGGUGCCAA	0.873
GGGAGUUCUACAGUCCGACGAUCGCGGAUGUGGGGGCGGCCAUCUGGUAGUGGAAAGCUGUAGCGAUCUGAGUACAGCUUAGAUGUUAGCUGGAGAGGAAGAUGGUGUGGCAGGUCUCUGGUCUCCCUACCCCUGGAAUUCUCGGGUGCCAA	0.823

Series 4 — technique: RNA Bind-n-Seq; form: RNA; sample: in vitro; tested at: not given; notes: RNA with constant flanks, ends assumed; relative to: input RNA pool; reading: higher = stronger binding
Target: RING finger protein unkempt homolog, zinc fingers 1-6, GST-SBP tag (UNK, Homo sapiens, UniProt Q9C0B0, residues 30-357)
Sequence of UniProt Q9C0B0 (30-357, looked up): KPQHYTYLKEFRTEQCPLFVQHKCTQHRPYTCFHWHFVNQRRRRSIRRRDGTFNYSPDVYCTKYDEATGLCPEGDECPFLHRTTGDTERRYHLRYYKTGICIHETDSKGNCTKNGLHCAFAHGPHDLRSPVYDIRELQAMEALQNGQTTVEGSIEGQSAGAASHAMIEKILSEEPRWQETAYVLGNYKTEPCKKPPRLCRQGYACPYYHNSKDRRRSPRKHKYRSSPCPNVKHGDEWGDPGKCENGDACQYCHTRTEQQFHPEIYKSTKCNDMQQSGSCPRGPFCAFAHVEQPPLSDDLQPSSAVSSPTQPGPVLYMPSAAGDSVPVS
Strand	bound/input enrichment
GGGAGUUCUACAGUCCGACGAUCGAAAAUCAAAAGACUAAUAUUAAUACUGUGGCUAAACAGGAACAGCGACCCAUAAAAAAGAACCGUCUUUAUUCAACAGAUUUCAUAGUGUUUAAUGACAACGAUGGUUCAGAUGAUGAACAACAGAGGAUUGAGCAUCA	0.245 ratio
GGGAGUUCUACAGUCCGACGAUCGCUUCAAACUUGCAACGUGGAUUUCAUUUUUUUUUUUUUUUAAUUUAUUCUCUGGGAUCCCUCCGUAACCUGGCAUUGCUCAUUGCUCAUGAAUCCCUUAACAAUGGCGGAGCUGACGCGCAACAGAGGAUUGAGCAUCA	1.51 ratio
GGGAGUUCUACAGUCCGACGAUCACCUGAGGACAUUCUGAGACUUCCUUUCUUCCAUUUUUUUUUUUUUUAAAGAGCCUGUGACCGUUGCUGUGGGCAGCCAGUUCCUGGGGCUUCCUCUUGGGCCCCCUGCACUCGGUCUCCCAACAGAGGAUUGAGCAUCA	0.762 ratio
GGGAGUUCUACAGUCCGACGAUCUCAUUUGCUCCUGAAUCUUGCUCAUUCUUUUUCUCUAGGUCUUUUUCUUUUGAGUUUUCCCCGCUAUUCAACUUUCCGUUGUGUCCUUUUUUGCUGUCUCUGUGUUCCUCUCAUUCUCAACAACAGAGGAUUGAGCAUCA	3.18 ratio
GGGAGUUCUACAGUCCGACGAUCGAUGUUAGGGAUGUGGUUGGGCGACGUCUAGAUCCCAGAGAAGGCCCUGGAAGGCCUCCAUCCGAUGCUAGGGAUCAUUUUGGAAGACCUCCUGUGGACAUGAGGGAGAAUCUUGUGAGGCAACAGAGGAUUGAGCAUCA	0.499 ratio
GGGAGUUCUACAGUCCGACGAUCGAUGUCAGGACUAUCUUGCUCUCUAUCCAGAGCCUGCUAGGAGAACCCAACAUCGACCGCCCUUUGAACACACACGCUGCGGAACUCUGGAAAAACCCCACAGCAUUUAAGAAAUACCUGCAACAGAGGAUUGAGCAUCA	0.239 ratio
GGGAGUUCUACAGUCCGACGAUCGCAGCUGCAGUUGCACUUUCCUCCCUGAUUCAUGCUUUGGAUGACUUAGACAUGGUGGCCACCGUUCGAUAUGCUUAUGACAAAAGAGCUAAUCCUCAAGUCGGCGUGGCUUUUCCUCAUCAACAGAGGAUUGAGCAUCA	0.287 ratio
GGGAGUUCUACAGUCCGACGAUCGAACGGGGACGCCUGAAAGAAGAGCUAGAAGAAGCCCGGGACAUAGCUAGGCGGCGCUCUUCCGGGAAUAUCAAGUUUAUUGGAGAGUUAUUCAAGUUGAAGAUGUUAACAGAAGCAAUACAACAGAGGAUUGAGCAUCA	8.63 ratio

For quick reference, copied from above (series 1):
Strand	log2 enrichment
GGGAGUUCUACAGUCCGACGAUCUGUGCUACACAUCGUAUGUACCGAAUCGGGAAAAAAAGGGGAAAAAAAGGGGAAAAAAAGGGAAAGUAUUAUGUUACGCCGUUCGGAUCUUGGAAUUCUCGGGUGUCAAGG	0.339
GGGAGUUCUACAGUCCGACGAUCGUGCUACACAUCGUAUGUACCGAAUCGGGGAAAAAAAGGGGAAAAAAAGGGGAAAAAAAGGGGAAAGUAUUAUGUUACGCCGUUCGGAUCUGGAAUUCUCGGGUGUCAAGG	0.427
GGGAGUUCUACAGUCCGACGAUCUCCUCAAGUCCUGUGCUACACAUCGUAUGUACCGAAUCGGUGGGUGGUGGGAAAGUAUUAUGUUACGCCGUUCGGAUCUGCACUUCCAGCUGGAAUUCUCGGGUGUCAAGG	0.485
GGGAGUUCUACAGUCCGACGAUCUCCUCAAGUCCUGUGCUACACAUCGUAUGUACCGAAUCGGAGGUUUGGUGGAAAGUAUUAUGUUACGCCGUUCGGAUCUGCACUUCCAGCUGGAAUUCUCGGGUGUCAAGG	-1.06
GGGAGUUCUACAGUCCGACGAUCUUGCUGUCACCCGCUGCCUGUCUGCAGGAUCCCGGAUUCCGUAUCAGGGGACCGAAAUUAGUCGGAAAAUAGGAAGCAGGUGCUCGCUUGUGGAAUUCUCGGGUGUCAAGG	-1.12
